{"data": "Published values from different studies", "note": "A part holds a random share of what one study measured.", "UniProt Q96L34, sequence (whole entry, looked up)": "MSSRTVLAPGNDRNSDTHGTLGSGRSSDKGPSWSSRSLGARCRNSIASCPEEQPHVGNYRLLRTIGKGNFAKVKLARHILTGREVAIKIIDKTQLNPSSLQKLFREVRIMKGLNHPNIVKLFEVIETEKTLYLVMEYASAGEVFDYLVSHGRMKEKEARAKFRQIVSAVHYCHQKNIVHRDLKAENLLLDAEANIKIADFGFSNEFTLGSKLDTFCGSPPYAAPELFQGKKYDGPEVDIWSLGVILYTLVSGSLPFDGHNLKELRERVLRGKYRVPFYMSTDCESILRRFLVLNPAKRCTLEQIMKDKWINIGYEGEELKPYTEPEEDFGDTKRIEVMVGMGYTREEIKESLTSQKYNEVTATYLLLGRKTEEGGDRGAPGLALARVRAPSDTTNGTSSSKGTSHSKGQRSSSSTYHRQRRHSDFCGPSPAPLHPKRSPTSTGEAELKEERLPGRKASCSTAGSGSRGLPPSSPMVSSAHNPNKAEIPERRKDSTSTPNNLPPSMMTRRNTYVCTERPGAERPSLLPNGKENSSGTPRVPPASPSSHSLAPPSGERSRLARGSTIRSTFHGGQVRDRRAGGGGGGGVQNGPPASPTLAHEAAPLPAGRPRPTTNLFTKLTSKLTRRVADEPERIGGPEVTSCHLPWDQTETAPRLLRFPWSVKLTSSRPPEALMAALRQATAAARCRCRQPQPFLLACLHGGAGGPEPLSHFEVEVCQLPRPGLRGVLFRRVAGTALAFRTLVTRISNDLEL", "UniProt Q8N568, sequence (whole entry, looked up)": "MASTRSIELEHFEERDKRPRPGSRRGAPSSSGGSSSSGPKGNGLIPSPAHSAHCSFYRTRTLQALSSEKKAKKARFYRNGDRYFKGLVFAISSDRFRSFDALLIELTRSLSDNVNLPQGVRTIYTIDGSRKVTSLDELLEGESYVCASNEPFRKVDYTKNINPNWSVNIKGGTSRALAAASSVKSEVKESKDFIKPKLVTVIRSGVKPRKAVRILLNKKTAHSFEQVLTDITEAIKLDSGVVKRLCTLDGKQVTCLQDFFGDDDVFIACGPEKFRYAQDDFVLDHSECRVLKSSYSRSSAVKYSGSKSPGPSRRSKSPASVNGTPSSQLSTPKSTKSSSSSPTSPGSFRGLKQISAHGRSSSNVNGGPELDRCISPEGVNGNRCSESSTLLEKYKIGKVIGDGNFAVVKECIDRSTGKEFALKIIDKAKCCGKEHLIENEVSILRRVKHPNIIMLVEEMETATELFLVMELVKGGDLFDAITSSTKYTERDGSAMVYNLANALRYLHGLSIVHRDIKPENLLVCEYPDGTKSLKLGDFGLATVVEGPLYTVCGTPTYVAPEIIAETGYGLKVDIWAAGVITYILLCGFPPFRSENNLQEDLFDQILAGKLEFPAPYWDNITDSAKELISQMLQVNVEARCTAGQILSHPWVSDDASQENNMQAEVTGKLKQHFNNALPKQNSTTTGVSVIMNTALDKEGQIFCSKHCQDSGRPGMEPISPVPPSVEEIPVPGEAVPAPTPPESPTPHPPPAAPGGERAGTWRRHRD", "UniProt Q8CIP4, sequence (whole entry, looked up)": "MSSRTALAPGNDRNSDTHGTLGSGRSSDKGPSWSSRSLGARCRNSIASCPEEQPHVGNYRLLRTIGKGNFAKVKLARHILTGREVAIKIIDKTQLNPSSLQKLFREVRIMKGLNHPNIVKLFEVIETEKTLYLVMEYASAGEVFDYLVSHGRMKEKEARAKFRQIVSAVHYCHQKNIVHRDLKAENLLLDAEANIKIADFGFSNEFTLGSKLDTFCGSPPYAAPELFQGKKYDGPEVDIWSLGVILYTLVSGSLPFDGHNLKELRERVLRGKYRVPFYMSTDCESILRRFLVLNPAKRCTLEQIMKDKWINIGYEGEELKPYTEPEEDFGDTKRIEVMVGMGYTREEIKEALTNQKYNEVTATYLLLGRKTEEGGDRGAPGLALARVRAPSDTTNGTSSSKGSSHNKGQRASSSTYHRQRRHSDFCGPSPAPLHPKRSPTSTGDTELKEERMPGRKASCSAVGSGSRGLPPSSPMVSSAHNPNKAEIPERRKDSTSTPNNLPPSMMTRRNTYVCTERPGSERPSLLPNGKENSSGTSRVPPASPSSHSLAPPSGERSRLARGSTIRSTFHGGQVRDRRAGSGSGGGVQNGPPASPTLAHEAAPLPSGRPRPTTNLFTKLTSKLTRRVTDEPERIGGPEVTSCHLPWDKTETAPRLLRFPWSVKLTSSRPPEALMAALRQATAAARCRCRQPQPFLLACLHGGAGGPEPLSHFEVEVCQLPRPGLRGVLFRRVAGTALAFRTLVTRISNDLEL", "UniProt Q7KZI7, sequence (whole entry, looked up)": "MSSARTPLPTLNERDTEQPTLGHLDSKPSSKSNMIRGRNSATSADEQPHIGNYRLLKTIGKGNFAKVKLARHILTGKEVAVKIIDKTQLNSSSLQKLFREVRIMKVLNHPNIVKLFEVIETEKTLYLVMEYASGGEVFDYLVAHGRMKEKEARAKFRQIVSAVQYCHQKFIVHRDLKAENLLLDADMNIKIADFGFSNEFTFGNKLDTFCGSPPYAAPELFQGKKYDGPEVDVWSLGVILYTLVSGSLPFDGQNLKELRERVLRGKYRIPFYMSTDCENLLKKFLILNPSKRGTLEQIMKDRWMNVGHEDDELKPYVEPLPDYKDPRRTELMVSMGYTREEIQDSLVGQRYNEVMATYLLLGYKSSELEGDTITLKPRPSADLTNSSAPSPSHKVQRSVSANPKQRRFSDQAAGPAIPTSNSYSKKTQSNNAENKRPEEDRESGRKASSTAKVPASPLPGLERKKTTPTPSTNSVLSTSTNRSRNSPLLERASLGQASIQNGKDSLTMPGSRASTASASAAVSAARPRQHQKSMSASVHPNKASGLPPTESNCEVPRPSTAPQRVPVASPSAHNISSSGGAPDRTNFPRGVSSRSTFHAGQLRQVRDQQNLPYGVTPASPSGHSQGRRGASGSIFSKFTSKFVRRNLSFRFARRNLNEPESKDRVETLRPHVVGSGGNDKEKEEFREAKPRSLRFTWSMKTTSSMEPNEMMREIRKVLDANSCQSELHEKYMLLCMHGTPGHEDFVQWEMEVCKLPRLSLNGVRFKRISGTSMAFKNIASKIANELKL", "UniProt P32298, sequence (whole entry, looked up)": "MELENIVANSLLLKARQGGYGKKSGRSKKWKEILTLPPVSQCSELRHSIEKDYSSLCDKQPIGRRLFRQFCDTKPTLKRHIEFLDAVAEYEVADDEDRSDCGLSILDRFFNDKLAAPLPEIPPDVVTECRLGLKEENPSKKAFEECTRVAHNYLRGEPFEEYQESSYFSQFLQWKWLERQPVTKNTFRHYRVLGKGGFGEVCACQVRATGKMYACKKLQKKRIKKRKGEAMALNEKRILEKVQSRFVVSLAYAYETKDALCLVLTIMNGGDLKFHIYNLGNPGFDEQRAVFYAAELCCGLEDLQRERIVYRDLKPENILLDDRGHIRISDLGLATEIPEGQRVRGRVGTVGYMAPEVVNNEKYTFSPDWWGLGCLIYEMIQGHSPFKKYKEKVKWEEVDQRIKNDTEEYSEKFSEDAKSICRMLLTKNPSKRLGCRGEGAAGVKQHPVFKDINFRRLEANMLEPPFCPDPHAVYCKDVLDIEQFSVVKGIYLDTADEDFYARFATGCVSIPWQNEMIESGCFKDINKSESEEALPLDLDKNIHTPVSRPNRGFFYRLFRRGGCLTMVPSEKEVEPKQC", "UniProt Q02750, sequence (whole entry, looked up)": "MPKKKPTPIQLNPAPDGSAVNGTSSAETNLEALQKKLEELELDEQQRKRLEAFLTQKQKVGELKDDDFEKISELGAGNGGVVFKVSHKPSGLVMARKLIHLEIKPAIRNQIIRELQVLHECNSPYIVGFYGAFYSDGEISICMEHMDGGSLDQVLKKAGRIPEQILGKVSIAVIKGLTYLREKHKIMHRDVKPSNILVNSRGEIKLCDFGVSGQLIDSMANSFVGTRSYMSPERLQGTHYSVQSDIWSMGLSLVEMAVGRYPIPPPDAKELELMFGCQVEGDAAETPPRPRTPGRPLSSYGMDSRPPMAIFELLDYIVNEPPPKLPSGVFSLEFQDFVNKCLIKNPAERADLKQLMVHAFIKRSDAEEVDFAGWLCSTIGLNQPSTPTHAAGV", "UniProt O75914, sequence (whole entry, looked up)": "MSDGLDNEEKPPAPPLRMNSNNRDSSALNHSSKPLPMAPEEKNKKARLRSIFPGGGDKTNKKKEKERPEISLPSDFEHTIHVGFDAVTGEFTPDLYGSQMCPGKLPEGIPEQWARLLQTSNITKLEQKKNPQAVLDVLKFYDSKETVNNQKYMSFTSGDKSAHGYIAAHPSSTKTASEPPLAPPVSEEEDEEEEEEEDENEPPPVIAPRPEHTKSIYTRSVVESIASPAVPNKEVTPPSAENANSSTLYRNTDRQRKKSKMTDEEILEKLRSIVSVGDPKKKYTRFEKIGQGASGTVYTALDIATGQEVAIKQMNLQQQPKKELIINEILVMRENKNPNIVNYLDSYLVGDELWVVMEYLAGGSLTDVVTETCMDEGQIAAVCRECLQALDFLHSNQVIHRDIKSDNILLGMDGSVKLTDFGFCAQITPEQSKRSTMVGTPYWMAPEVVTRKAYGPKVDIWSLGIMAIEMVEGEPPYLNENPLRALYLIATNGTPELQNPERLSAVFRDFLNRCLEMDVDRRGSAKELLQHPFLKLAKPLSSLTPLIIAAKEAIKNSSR"}
{"data": "Study 1", "host": "human", "matrix": "microsomes or S9", "concentration": "2 µM", "time": "0.5 h"}
{"SMILES": "Oc1ccc(C2c3c(-c4ccc(F)cc4)nnc(O)c3Nc3nnnn32)cc1 (centres unmarked)", "remaining compound": "60.2%"}
{"SMILES": "O=C(O)c1ccc(-c2noc3ccc(-c4ccc(O)cc4)cc23)cc1", "remaining compound": "72.5%"}
{"SMILES": "CC1CCN(C(=O)c2cc3c([nH]2)CCOC3)c2c(O)cccc21 (centres unmarked)", "remaining compound": "25.9%"}
{"SMILES": "Cc1cc(N2CCCC2c2cc(C)on2)nc(N)n1 (centres unmarked)", "remaining compound": "94.3%"}
{"SMILES": "O=C(c1ccccc1)c1cc(Cl)ccc1Nc1cc(Br)cc2c1N(c1ncccn1)CC2", "remaining compound": "18.3%"}
{"SMILES": "Cc1cc(C23CC4CC(CC(C4)C2)C3)cc2sc(N)nc12", "remaining compound": "75.7%"}
{"SMILES": "Cc1ccc(CO)c(-c2ccc3c(c2)CNCC2(CCC2)O3)c1", "remaining compound": "31.6%"}
{"SMILES": "CC/C(=C(\\c1ccccc1)c1ccc(OCCN(C)C)cc1)c1ccccc1", "remaining compound": "55.6%"}
{"SMILES": "CN(C)CCN(Cc1ccccc1)C(=O)C(C(=O)c1ccc(F)cc1)n1ccccc1=O (centres unmarked)", "remaining compound": "28.5%"}
{"data": "Study 2", "target": "Histamine H2 receptor (HRH2, Homo sapiens, UniProt P25021)", "observed": "ligand displacement", "concentration": "10 µM", "UniProt P25021, sequence (whole entry, looked up)": "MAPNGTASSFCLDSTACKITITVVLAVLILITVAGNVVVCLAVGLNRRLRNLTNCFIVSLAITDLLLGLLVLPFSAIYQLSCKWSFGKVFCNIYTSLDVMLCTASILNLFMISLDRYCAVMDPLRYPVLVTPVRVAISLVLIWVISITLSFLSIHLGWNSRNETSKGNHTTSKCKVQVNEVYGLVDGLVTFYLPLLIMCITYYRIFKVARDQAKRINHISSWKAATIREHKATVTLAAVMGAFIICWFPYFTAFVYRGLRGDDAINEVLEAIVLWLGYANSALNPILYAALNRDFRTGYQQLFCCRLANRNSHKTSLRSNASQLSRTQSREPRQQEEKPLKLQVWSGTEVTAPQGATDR"}
{"Structure (SMILES)": "CC1CCN(c2ccnc(NCc3cn(C)cn3)n2)CC1", "inhibition [%]": 28.6}
{"Structure (SMILES)": "c1ccc(N2CCN(Cc3nc4ccccc4[nH]3)CC2)nc1", "inhibition [%]": 31.2}
{"Structure (SMILES)": "C[C@H](c1ccc(F)cc1)N(Cc1cccc(C(=O)O)c1)C(=O)c1cnc2ccccc2c1", "inhibition [%]": -1.14}
{"Structure (SMILES)": "Cc1ncc(-c2cc(Cl)ccc2F)cc1-n1c(=O)n(CC(N)=O)c2ccccc21", "inhibition [%]": -19.7}
{"Structure (SMILES)": "C[C@@H](c1cccc(C#N)c1)n1cc(Cl)cc(C(N)=O)c1=N", "inhibition [%]": 8.25}
{"Structure (SMILES)": "CS(=O)(=O)N1CCCC(NC(=O)[C@H](CCC2CCCCC2)NC(=O)c2ccc(CNC(=O)c3cnc4ccccn34)cc2)C1 (some centres unmarked)", "inhibition [%]": -15.1}
{"Structure (SMILES)": "N#CC1(c2ccccn2)CCN(Cc2cc(C(=O)N3CCCC3)c(=O)n3ccccc23)CC1", "inhibition [%]": 3.1}
{"Structure (SMILES)": "O=C(NS(=O)(=O)c1ccc(NCC2CCOCC2)c([N+](=O)[O-])c1)c1ccc(N2CCN(Cc3ccc(C(F)(F)F)cc3-c3ccc(Cl)cc3)CC2)cc1Oc1cnc2[nH]ccc2c1", "inhibition [%]": 8.95}
{"Structure (SMILES)": "CCC(=NO)C(C)=Cc1ccc(F)c(C)c1", "inhibition [%]": -11.2}
{"Structure (SMILES)": "Cc1ccccc1Oc1cc(-n2c(=O)cc(C(F)(F)F)[nH]c2=O)c2ccccc2c1Cl", "inhibition [%]": 5.46}
{"Structure (SMILES)": "Cc1cc(Nc2nccc(C)n2)cc(-c2cnc([C@@]3(O)CC[C@H](C(=O)O)C(C)(C)C3)s2)c1", "inhibition [%]": 3.06}
{"Structure (SMILES)": "C[C@H](c1ccnc(Nc2nc3ccc(-c4cc(N(C)C)ncn4)cc3[nH]2)c1)N1CCN(C(=O)CC(F)(F)F)CC1", "inhibition [%]": 3.55}
{"Structure (SMILES)": "C[C@@H]1CN(c2cc(-c3n[nH]c4ccc(OC5(C)CC5)cc34)ncn2)C[C@H](C)O1", "inhibition [%]": 6.26}
{"Structure (SMILES)": "COc1cc(C(=O)O)ncc1C#Cc1ccccc1NS(=O)(=O)c1cccc2c(N(C)C)ccnc12", "inhibition [%]": -19.5}
{"Structure (SMILES)": "CC1=C(C#N)C(c2ccc3[nH]nc(C)c3c2)C(C#N)=C(C)N1", "inhibition [%]": 12.6}
{"Structure (SMILES)": "CN1CCN(C(=O)C(C)(C)c2ccc(C(=O)Nc3cn4cc(-c5cc(C(C)(C)C)cc(C(C)(C)C)c5)ccc4n3)cc2)CC1", "inhibition [%]": 86.8}
{"Structure (SMILES)": "Cn1cc(Cl)c2c(Oc3c(F)cc(Nc4cc(Cl)nc(N)n4)cc3F)ccnc21", "inhibition [%]": 16.7}
{"Structure (SMILES)": "COc1cc(-c2cn(C3CCc4c(F)cccc4N(CC(F)(F)F)C3=O)nn2)ccc1-n1cnc(C)c1 (centres unmarked)", "inhibition [%]": 51.8}
{"Structure (SMILES)": "O=C(Nc1ccc(Oc2ccc(F)cc2)cc1)N1CCc2ncccc2[C@H]1c1ccc(F)cc1", "inhibition [%]": 7.29}
{"Structure (SMILES)": "CNC(=N)NCCC[C@H](NC(=O)[C@H](CC(C)C)NC(=O)NNC(=O)[C@H](Cc1ccccc1)NC(=O)[C@H](CO)NC(=O)[C@H](CC(N)=O)NC(=O)[C@@H](Cc1ccncc1)NC(=O)[C@H](N)Cc1ccc(O)cc1)C(=O)N[C@@H](Cc1ccccc1)C(N)=O", "inhibition [%]": 4.38}
{"Structure (SMILES)": "O=C(N[C@H]1CCCCC/C=C\\C2C[C@@]2(C(=O)O)NC(=O)[C@@H]2C[C@@H](Oc3ccncc3)CN2C1=O)OC1CCCC1 (some centres unmarked)", "inhibition [%]": 15.6}
{"Structure (SMILES)": "CN([C@@H]1CCc2c(CC(=O)O)c3ccccc3n2C1)S(=O)(=O)c1ccc(F)cc1", "inhibition [%]": -1.62}
{"Structure (SMILES)": "Cc1ccc(-c2cnc([C@@]3(O)CC[C@H](C(=O)O)C(C)(C)C3)s2)cc1Nc1cccc(C(F)(F)F)n1", "inhibition [%]": 8.65}
{"Structure (SMILES)": "Nc1nc(NCc2ccccc2)nc(-c2cccc(CO)c2)n1", "inhibition [%]": 6.14}
{"Structure (SMILES)": "Nc1nc(NCc2ccccc2)nc(-c2ccccc2CO)n1", "inhibition [%]": -17.6}
{"data": "Study 3", "SMILES": "CCCCc1c(-c2ccc(O)cc2)[nH]c2nccnc12", "observed": "enzyme activity", "mode": "inhibitor", "concentration": "0.5 µM", "baseline": "control"}
{"target": "Serine/threonine-protein kinase PAK 3 (PAK3, Homo sapiens, UniProt O75914)", "remaining activity [%]": 97.7}
{"target": "Serine/threonine-protein kinase MARK2 (MARK2, Homo sapiens, UniProt Q7KZI7)", "remaining activity [%]": 76.1}
{"target": "MAP/microtubule affinity-regulating kinase 4 (MARK4, Homo sapiens, UniProt Q96L34)", "remaining activity [%]": 84.6}
{"target": "Serine/threonine-protein kinase DCLK2 (DCLK2, Homo sapiens, UniProt Q8N568)", "remaining activity [%]": 99.7}
{"target": "Serine/threonine-protein kinase Nek3 (NEK3, Homo sapiens, UniProt P51956)", "remaining activity [%]": 103}
{"target": "G protein-coupled receptor kinase 4 (GRK4, Homo sapiens, UniProt P32298)", "remaining activity [%]": 101}
{"target": "Dual specificity protein kinase CLK3 (CLK3, Homo sapiens, UniProt P49761)", "remaining activity [%]": 121}
{"target": "Hepatocyte growth factor receptor (MET, Homo sapiens, UniProt P08581)", "remaining activity [%]": 82.7}
{"target": "Calcium/calmodulin-dependent protein kinase type IV (CAMK4, Homo sapiens, UniProt Q16566)", "remaining activity [%]": 93.9}
{"target": "Mitogen-activated protein kinase 14 (MAPK14, Homo sapiens, UniProt Q16539)", "remaining activity [%]": 102}
{"target": "Dual specificity protein kinase CLK4 (CLK4, Homo sapiens, UniProt Q9HAZ1)", "remaining activity [%]": 64.3}
{"target": "Serine/threonine-protein kinase PLK3 (PLK3, Homo sapiens, UniProt Q9H4B4)", "remaining activity [%]": 90.6}
{"target": "Dual specificity mitogen-activated protein kinase kinase 1 (MAP2K1, Homo sapiens, UniProt Q02750)", "remaining activity [%]": 94.8}
{"data": "Study 4", "SMILES": "COc1cc(C(=O)N2CCC(N3CCN(C)CC3)CC2)ccc1Nc1ncc2c(n1)N(C)c1ccccc1C(=O)N2C"}
{"tested on": "ULK3 (mouse)", "assay": "probe labelling, KiNativ, measured: EVVAIkCVAK peptide, LYS1 site", "system": "brain tissue lysate (mouse)", "setting": "1 µM, added: ADP acyl-phosphate probe", "inhibition": "-1.8%"}
{"tested on": "mouse ILK", "assay": "probe labelling, KiNativ ATP probe", "system": "mouse brain lysate", "setting": "0.1 µM, kinase domain ISMADVkFSFQCPGR", "inhibition": "5.4%"}
{"tested on": "ULK3 (mouse)", "assay": "probe labelling, KiNativ, measured: EVVAIkCVAK peptide, LYS1 site", "system": "brain tissue lysate (mouse)", "setting": "0.1 µM, added: ATP acyl-phosphate probe", "inhibition": "21.9%"}
{"tested on": "NEK9 (mouse)", "assay": "probe labelling, KiNativ ADP probe", "system": "mouse brain lysate", "setting": "0.1 µM, LYS1 labelled site", "inhibition": "-9.9%"}
{"tested on": "FER human", "assay": "KiNativ profiling", "system": "human PBMC", "setting": "1 µM, activation loop site, added: ATP acyl phosphate probe", "inhibition": "-3.4%"}
{"tested on": "human PBMC", "assay": "probe labeling, inhibitor, KiNativ profiling, measured: DIkPSNILLDR", "system": "cell lysate", "setting": "concentration not given, LYS2 site, added: ATP acyl-phosphate probe", "inhibition": "-0.2%"}
{"tested on": "Receptor tyrosine-protein kinase erbB-4 (Erbb4, Mus musculus, UniProt Q61527)", "assay": "KiNativ profiling", "system": "mouse brain lysate", "setting": "1 µM, LYS1 site, added: ADP acyl phosphate probe", "inhibition": "6.1%"}
{"tested on": "NUAK2 human", "assay": "KiNativ profiling", "system": "human PBMC lysate", "setting": "concentration not given, ADP probe, Lys1 site", "inhibition": "-11.1%"}
{"tested on": "human PBMC", "assay": "probe labeling, inhibitor, KiNativ profiling, measured: EVAVkIIDK", "system": "cell lysate", "setting": "concentration not given, LYS1 site, added: ADP acyl-phosphate probe", "inhibition": "-2.2%"}
{"tested on": "MAP/microtubule affinity-regulating kinase 4 (Mus musculus, UniProt Q8CIP4)", "assay": "KiNativ profiling", "system": "mouse brain lysate", "setting": "1 µM, LYS1 site, added: ATP acyl phosphate probe", "inhibition": "0.3%"}
{"tested on": "OSR1 (mouse)", "assay": "probe labelling, KiNativ ADP probe", "system": "mouse brain lysate", "setting": "1 µM, LYS2 labelled site", "inhibition": "-10.4%"}
{"tested on": "mouse PFTAIRE1", "assay": "probe labelling, KiNativ ATP probe", "system": "mouse brain lysate", "setting": "0.1 µM, LYS1 site LVALkVIR", "inhibition": "-4.2%"}
{"tested on": "TRKC (mouse)", "assay": "probe labelling, KiNativ, measured: LYS1 site peptide", "system": "brain tissue lysate (mouse)", "setting": "0.1 µM, added: ADP acyl-phosphate probe", "inhibition": "12.7%"}
{"tested on": "mouse NUAK1", "assay": "probe labelling, KiNativ ADP probe", "system": "mouse brain lysate", "setting": "0.1 µM", "inhibition": "2.4%"}
{"tested on": "SGK2 (mouse)", "assay": "probe labelling, inhibitor, KiNativ ActivX ATP probe", "system": "mouse brain lysate", "setting": "1 µM, Lys1 site peptide", "inhibition": "-9.8%"}
{"note": "For quick reference, copied from above (study 2):"}
{"Structure (SMILES)": "CCC(=NO)C(C)=Cc1ccc(F)c(C)c1", "inhibition [%]": -11.2}
{"Structure (SMILES)": "COc1cc(-c2cn(C3CCc4c(F)cccc4N(CC(F)(F)F)C3=O)nn2)ccc1-n1cnc(C)c1 (centres unmarked)", "inhibition [%]": 51.8}
{"Structure (SMILES)": "Cc1ccc(-c2cnc([C@@]3(O)CC[C@H](C(=O)O)C(C)(C)C3)s2)cc1Nc1cccc(C(F)(F)F)n1", "inhibition [%]": 8.65}
